Measurements collected from several papers.
Every numbered part comes from another study and shows a few of its results, in no order. Substitutions count along the parent as printed.

Set 1
Target: Ras GTPase-activating protein-binding protein 1, C-terminal RGG region (G3BP1, Homo sapiens, UniProt Q13283)
Chain of UniProt Q13283 (whole entry, looked up): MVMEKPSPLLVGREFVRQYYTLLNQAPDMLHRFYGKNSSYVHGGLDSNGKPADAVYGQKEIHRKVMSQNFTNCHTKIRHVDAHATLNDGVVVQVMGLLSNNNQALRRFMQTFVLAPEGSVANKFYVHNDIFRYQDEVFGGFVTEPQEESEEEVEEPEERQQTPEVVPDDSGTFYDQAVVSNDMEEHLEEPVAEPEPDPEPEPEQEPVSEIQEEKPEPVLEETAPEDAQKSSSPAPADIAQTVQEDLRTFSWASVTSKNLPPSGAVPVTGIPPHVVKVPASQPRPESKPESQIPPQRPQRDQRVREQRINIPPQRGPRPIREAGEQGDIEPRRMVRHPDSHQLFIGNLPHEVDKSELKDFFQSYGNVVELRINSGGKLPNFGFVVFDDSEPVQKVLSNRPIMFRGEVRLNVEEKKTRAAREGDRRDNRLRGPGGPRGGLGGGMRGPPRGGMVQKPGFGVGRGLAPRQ
Technique: RNA Bind-n-Seq
Molecule type: RNA
Medium: in vitro
Tested at: 1 µM
Notes: whole 134-nt RNA, ends assumed
Together with: 150 mM KCl
Relative to: input library
Direction: higher = stronger binding
Measurement: log2 enrichment
GGGAGUUCUACAGUCCGACGAUCUGAAGGCGCGGCCCUUCCCCGACGGCCUGGCCGAGGACAUCGAUAAAGGCGAGGUGUCCGCCCGUCAGGAGCUCAAGCAGCGGGCGCGCUUGGAAUUCUCGGGUGUCAAGG: -1.32
GGGAGUUCUACAGUCCGACGAUCCCUCAAGUCCUGUGCUACACAUCGUAUGUACCGAAUCGGGAAGGAAGGGAAGGAAAGUAUUAUGUUACGCCGUUCGGAUCUGCACUUCCAUGGAAUUCUCGGGUGUCAAGG: -1.37
GGGAGUUCUACAGUCCGACGAUCCCUCAAGUCCUGUGCUACACAUCGUAUGUACCGAAUCGGGCGGGGCGGGCGGGAAAGUAUUAUGUUACGCCGUUCGGAUCUGCACUUCCAUGGAAUUCUCGGGUGUCAAGG: 2.32
GGGAGUUCUACAGUCCGACGAUCCCUCAAGUCCUGUGCUACACAUCGUAUGUACCGAAUCGGAAAAAGGUGGAGGAAAGUAUUAUGUUACGCCGUUCGGAUCUGCACUUCCAGUGGAAUUCUCGGGUGUCAAGG: -0.656

Set 2
Target: CCND3, cyclin fold, Cln2 fusion (human)
Technique: yeast growth competition, sequencing
Medium: yeast
Notes: weak parent motif
Relative to: not given
Direction: higher = stronger binding
Measurement: normalised enrichment score
Starting sequence: PKN2 docking peptide (human); VSAVQKLDFSDTM
VSAVQKLDFSYTM [D11Y]: 0.0675
VSAVQKDDFSDTM [L7D]: 0.125
VSAMQKLDFSDTM [V4M]: 0.0944
VSASQKLDFSDTM [V4S]: 0.0269
VSAVQKLKFSDTM [D8K]: 0.167

Set 3
Target: RING finger protein unkempt homolog, zinc fingers 1-6, GST-SBP tag (UNK, Homo sapiens, UniProt Q9C0B0, residues 30-357)
Chain of UniProt Q9C0B0 (30-357, looked up): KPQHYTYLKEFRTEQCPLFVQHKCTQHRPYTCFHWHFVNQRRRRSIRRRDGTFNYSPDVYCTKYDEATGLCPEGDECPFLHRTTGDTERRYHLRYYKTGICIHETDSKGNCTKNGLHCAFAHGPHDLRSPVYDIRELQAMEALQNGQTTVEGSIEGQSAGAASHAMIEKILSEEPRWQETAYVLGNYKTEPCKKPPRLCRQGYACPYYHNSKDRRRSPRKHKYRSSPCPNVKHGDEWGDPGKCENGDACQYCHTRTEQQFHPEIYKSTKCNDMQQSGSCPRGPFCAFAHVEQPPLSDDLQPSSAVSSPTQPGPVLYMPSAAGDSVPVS
Technique: RNA Bind-n-Seq
Molecule type: RNA
Medium: in vitro
Tested at: not given
Notes: RNA with constant flanks, human and mouse sites, ends assumed
Relative to: input RNA pool
Direction: higher = stronger binding
Measurement: bound/input enrichment
Shared flanks, not repeated: GGGAGUUCUACAGUCCGACGAUC … CAACAGAGGAUUGAGCAUCA
UUAUGUGACCUAAAACUUUUUUAAAUGAAAAAAAAAUGUGGUUUUUUUUUUGGUUUUAAUGGUGUUAUGUGGUCUGUGUAUUAAUUAUUUACUUUUCCGUUGAUACAACAUGAAGGUCUU: 0.332 ratio
AACAACUUUCUUCAAACACUAAAUCAAGCUUGGAAUGAUCAUCAAACAGCCAUGGUGAUGAUUAGAGACAUAUUAAUGUAUAUGGACCGUGUAUAUGUACAACAGAAUAAUGUAGAAAAU: 0.345 ratio
UGCACAUUCUGGGGUUGUUUUUGCUGCAUCAGAAGACAAACACUGGCACUCGUGGCUGUUUUUUUUUUUUUUUUUUUUUUUUUUUUCCUCCUUACAAGUCCAUAUGUGGUGCAGUGCUCA: 1.5 ratio
UGGUUUUUGCAGGAAGAAAAAAGAGAGUGCUUUGGAGCUUGUCUGUUUACCUGUUACGAUCUUUUAAGGCCAGAUGUCGUCCUAGAAACUGCAUGGAGGCACAAUAUCAUGGAUUUUGCC: 0.35 ratio
UUCUUCACCCGGAACCAUCUGCCUGUACCUAACCUGGAUCCAGACACCUAUCGCUUACACGUAGUAGGAGCACCUGGGGGUCAGUCACUGUCUCUUUCCCUGGAUGACUUGCACAACUUU: 0.147 ratio
CUCAAUGUUACACCACUGGCAAGAAUAGUAGCAUUUGCUGACGCUGCUGUAGAACCUAUUGAUUUUCCAAUUGCUCCUGUAUAUGCUGCAUCUAUGGUUCUUAAAGAUGUGGGAUUGAAA: 0.171 ratio

Further values, each from its own experiment
PhoQ, residues 284 288 289 292 302 303 SIHLQL — fold induction (PhoP, residues 12 14 15 18 19 LYHSL (Escherichia coli, UniProt P23836); Sort-seq, measured: YFP reporter; E. coli; PhoQ-PhoP variant library, together with: 10 µM Mg2+; relative to: high Mg2+ state, higher = stronger signaling): 1.49
